Assay results pooled from the literature.
Compare with care: the assays were run in different laboratories. “And” joins repeats or separate records; there may be more than shown. ± gives the spread as reported.

Compound = CC(C)(C)c1ccc([C@H](O)C[C@H](CO)NC(=O)CCCCCOc2ccc3ccccc3c2)cc1; target or system = HeLa; assay = HPLC-MS-MS lipidomics, item: C18 SM and ceramide; setting = 1 µM, 24 h; scale = baseline: SM over Cer; quantity = SM/Cer ratio; result = 17 ,1
Compound = O=C(N/N=C/c1cc[n+](Cc2ccccc2)c2ccccc12)c1ccc2ccc(C(=O)N/N=C/c3cc[n+](Cc4ccccc4)c4ccccc34)nc2n1; target or system = 22CTA telomeric G4-DNA antiparallel; assay = FRET melting; setting = 1 µM, K10 buffer, DNA 0.2 µM; quantity = ΔTm; result = 17.3 ± 0.5 °C
Compound = CN1CC[C@@H](COc2cnc(C#N)cc2-c2ccn3nc(NC(=O)C4CC4)cc3c2)C1; target or system = human PBMC, CD4 T cells; assay = single-cell RNA-seq; setting = 1 µM, with: LPS; scale = baseline: LPS alone; quantity = number of downregulated genes; result = 30 genes
Compound = CC12CCCC(NS(=O)(=O)c3ccc(CCN)cc3)(C1)C1CC(C)(C)C1CC2 (stereo not shown); target or system = HT-29; assay = cell growth or viability, CCK-8; setting = 50 µM; quantity = inhibition; result = 98.7%
Compound = COC1CCN(C(=O)/C=C/c2nn(Cc3cccc(C(F)(F)F)c3)c3nc(N(C)C)ncc23)CC1; target or system = OE33; assay = cell growth or viability, resazurin; setting = 5 days; quantity = EC50; result = > 30000 nM
Compound = CCN(CC)CC(=O)Nc1cccc(-n2cc(-c3ccc4ccc(-c5cn(-c6cccc(NC(=O)CN(CC)CC)c6)nn5)cc4c3)nn2)c1; target or system = RCC4; assay = PCR angiogenesis array, item: KDR; setting = 5 x IC50, 4 h, normoxia; scale = baseline: untreated; quantity = fold regulation; result = 1.06
Compound = C[C@@H]1CC[C@@H]([C@@](O)(CNCc2ccc(F)cc2)COCc2ccccc2)[C@H](OCc2ccccc2)C1; target or system = A2780; assay = cell growth or viability, MTT; setting = 30 µM, 72 h; quantity = inhibition; result = 94%
Compound = CN1CCCNC(=O)c2cccc(c2)C(=O)NCCCN(C)CCCNc2cccc3c2C(=O)c2cccc(c2C3=O)NCCC1; target or system = SAS; assay = RNA-Seq, item: OSBPL9 mRNA; setting = 1 µM, 6 h; scale = baseline: untreated cells; quantity = log2 fold change; result = -0.981
Compound = O=S(=O)(N[C@H]1CCO[C@@H](C2c3ccccc3CCc3ccccc32)C1)c1ccc(OC(F)(F)F)cc1; target or system = D425; assay = immunoblot; setting = concentration not given; quantity = I2PP2A protein level; result = increased
Compound = COc1ccc2c(c1)OC1=C(C(=O)CCC1)C2c1c[nH]c2ccccc12 (stereo not shown); target or system = 3T3-L1 mature adipocytes; setting = IC20; scale = baseline: untreated; quantity = glycerol release; result = 118%
Compound = CNS(=O)(=O)Nc1nccc(Cc2c(C)c3ccc(Oc4ncccc4F)cc3oc2=O)c1F; target or system = OCI-LY19; assay = cell viability; setting = 7 days; quantity = IC50; result = 5.61 nM
Compound = O=C(C[Se]C(=O)c1ccc2ccccc2c1)Nc1cccc(C(F)(F)F)c1; target or system = NCI60 leukemia subpanel; assay = cell growth; setting = 10 µM, 48 h, one-dose; quantity = mean growth percent; result = -80.5%
Compound = Cc1ncsc1-c1ccc(C(C)NC(=O)C2CC(O)CN2C(=O)C(NC(=O)CCCCCCCCCCN2CCCC(Nc3ncc(Cl)c(Nc4ccccc4S(=O)(=O)C(C)C)n3)C2)C(C)(C)C)cc1 (stereo not shown); target or system = 22Rv1; assay = RNA-seq, item: TLN2 mRNA; setting = concentration not given; scale = baseline: DMSO; quantity = log2 fold change; result = -1.59
Compound = CC(=O)N[C@@H](CC(=O)O)C(=O)N[C@@H](CCC(=O)O)C(=O)N[C@H](C(=O)N[C@@H](CC(=O)O)C(=O)COC(=O)c1c(C)cccc1C)C(C)C; target or system = THP-1 cells, LPS-primed; assay = pyroptosis, LDH release; setting = 25 µM, LPS 1 µg/mL, 4 h, with: nigericin 5 µM, 2 h; quantity = cell lysis; result = 25.4%
Compound = Cc1cc(Cl)cc(-c2ccnc3cc(CN4C(=O)C5C(C4=O)C5(C)C)sc23)c1C[C@@H]1CNCCO1 (stereo partly shown); target or system = CHP-212 resistant cells (pooled); assay = annexin V-PI flow cytometry; setting = 0.1 µM, 48 h; quantity = viable cells (annexin V-/PI-); result = 91.2% and 79.6% and 84.4%
Compound = CCC(=CCc1c(O)cc2c(c1O)C(=O)CC(c1ccc(OC)c(O)c1)O2)CC (stereo not shown); target or system = HeLa; assay = cell growth or viability, MTT; setting = 25 µM, 48 h; quantity = inhibition; result = 82.2%
Compound = O=C(N/N=C/c1cc[n+](Cc2ccccc2)c2ccccc12)c1cc(C(=O)N/N=C/c2cc[n+](Cc3ccccc3)c3ccccc23)ncn1; target or system = 22CTA telomeric G4-DNA antiparallel; assay = FRET melting; setting = 1 µM, K10 buffer, DNA 0.2 µM, with: ds26 10 µM; quantity = ΔTm; result = 13.7 ± 0.5 °C
Compound = CCC(=CCc1c(O)cc2c(c1O)C(=O)CC(c1cc(O)ccc1OC)O2)CC (stereo not shown); target or system = HeLa; assay = cell growth or viability, MTT; setting = 25 µM, 48 h; quantity = inhibition; result = 39.6%
Compound = CC12CCCC(NS(=O)(=O)c3ccc(C#N)cc3)(C1)C1CC(C)(C)C1CC2 (stereo not shown); target or system = HT-29; assay = cell growth or viability, CCK-8; setting = 10 µM; quantity = inhibition; result = < 50%

A few entries again:
Compound = COc1ccc2c(c1)OC1=C(C(=O)CCC1)C2c1c[nH]c2ccccc12 (stereo not shown); target or system = 3T3-L1 mature adipocytes; setting = IC20; scale = baseline: untreated; quantity = glycerol release; result = 118%
Compound = CNS(=O)(=O)Nc1nccc(Cc2c(C)c3ccc(Oc4ncccc4F)cc3oc2=O)c1F; target or system = OCI-LY19; assay = cell viability; setting = 7 days; quantity = IC50; result = 5.61 nM
